Measured values gathered from unrelated publications.
Numbered parts are unrelated; each lists some results of a single study. Changes are numbered by the printed parent chain.

Sample 1 — method: DHFR PCA, deep sequencing; medium: yeast; with: (+)-ABA 58 µM; relative to: wild-type fitted maximum; reading: higher = stronger binding
Target: ABI1, truncated, D143A, DHFR fusion (Arabidopsis thaliana)
Notes: methotrexate growth selection, single substitutions
Starting sequence: PYL1, truncated, DHFR fusion (Arabidopsis thaliana); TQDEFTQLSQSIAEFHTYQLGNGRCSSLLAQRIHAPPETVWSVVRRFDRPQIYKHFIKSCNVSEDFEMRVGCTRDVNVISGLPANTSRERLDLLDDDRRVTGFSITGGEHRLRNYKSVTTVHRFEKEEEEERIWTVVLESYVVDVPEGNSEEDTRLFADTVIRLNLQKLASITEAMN; partner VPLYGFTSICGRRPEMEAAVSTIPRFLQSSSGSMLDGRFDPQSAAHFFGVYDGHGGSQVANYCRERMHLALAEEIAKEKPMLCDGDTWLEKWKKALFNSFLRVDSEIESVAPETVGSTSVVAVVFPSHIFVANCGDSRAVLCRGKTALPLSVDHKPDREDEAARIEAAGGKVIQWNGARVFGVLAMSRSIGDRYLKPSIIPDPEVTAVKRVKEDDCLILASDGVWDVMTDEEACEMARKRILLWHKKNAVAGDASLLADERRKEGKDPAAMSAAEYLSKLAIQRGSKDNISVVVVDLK
Under “relative binding score”, `G107C` is recorded as 51.4%.
Under “relative binding score”, `T86R` is recorded as 74.4%.
For `P50M`, “relative binding score” read 2.85%.
For `N149F`, “relative binding score” read 4.41%.
Under “relative binding score”, `L166V` is recorded as 9.48%.
Under “relative binding score”, `E127D` is recorded as 93.3%.
For `V145N`, “relative binding score” read 35.3%.
Under “relative binding score”, `R90C` is recorded as 70%.
For `I33P`, “relative binding score” read -1.08%.
For `Y53R`, “relative binding score” read 33.3%.
`R99M` — result for “relative binding score”: 105%.
`R24I` — result for “relative binding score”: 76.9%.
For `S26I`, “relative binding score” read 47.3%.
`N61P` — result for “relative binding score”: 30.6%.
Under “relative binding score”, `G71M` is recorded as 12.1%.
`T39D`: “relative binding score” 81.7%.

Sample 2 — method: protein binding microarray; form: double-stranded DNA, one strand shown; medium: in vitro; tested at: not given; relative to: not given; reading: higher = stronger binding
Target: Histone acetyltransferase KAT6A, winged helix 2, GST fusion (KAT6A, Homo sapiens, UniProt Q92794, residues 85-181)
Notes: 8-mer, flanks averaged, mean of 2 arrays, mostly near background
Target sequence (chain): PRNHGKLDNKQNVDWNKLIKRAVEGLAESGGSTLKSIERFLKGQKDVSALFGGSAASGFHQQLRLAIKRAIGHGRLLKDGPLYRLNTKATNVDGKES
With `CATGGGGG` the E-score was -0.00614.
`CTCGCACA` gave an E-score of 0.0178.
With `GGCCCCAA` the E-score was 0.0509.
`ATTCGGGA` gave an E-score of 0.0869.
With `AGGGAAGC` the E-score was -0.175.
For `CTTAGCAC`, the E-score was 0.0633.
The E-score of `CGAGGAAG` is reported as 0.0639.
With `AATACGAG` the E-score was 0.0798.
`GGCTAAGA` has an E-score of -0.118.
The E-score of `CGGTATCA` is reported as -0.025.
`CACGATGA` gave an E-score of 0.0663.
`AGGCTCCA` gave an E-score of -0.0645.
`CGATAGTC` has an E-score of -0.0182.
The E-score of `GCACGGAA` is reported as -0.0982.
`TCTCGTAA` has an E-score of -0.113.
The E-score of `ACAAGCCC` is reported as -0.258.
`AGACCCAT` has an E-score of -0.212.
`ACGGAGAC` has an E-score of 0.101.
`CAGCGTAC` has an E-score of -0.0235.

Sample 3 — method: aptamer microarray, sandwich; form: DNA with 2'F-ANA; medium: in vitro; tested at: 200 nM; with: Cy3 exosite-II aptamer, 400 nM; reading: higher = stronger binding; oligonucleotide: GGTTGGTGTGGTTGG
Target: Prothrombin, mature alpha-thrombin (F2, Homo sapiens, UniProt P00734)
Notes: whole 15-mer aptamer, many near background
`2'F-ANA at 1 7 8 9` — result for “mean fluorescence intensity”: 247 a.u.
`2'F-ANA at 2 3 6 14 15` — result for “mean fluorescence intensity”: 350 a.u.
`2'F-ANA at 1 2 3 6 12 13 15`: “mean fluorescence intensity” 286 a.u.
For `2'F-ANA at 3 4 10 12 15`, “mean fluorescence intensity” read 407 a.u.
Under “mean fluorescence intensity”, `2'F-ANA at 4 6 8 9 10 11` is recorded as 81.3 a.u.
`2'F-ANA at 3 5 8 12 15` — result for “mean fluorescence intensity”: 318 a.u.
`2'F-ANA at 2 3 5 6 7 8 9 10 11 12 14` — result for “mean fluorescence intensity”: 47.7 a.u.
`2'F-ANA at 1 2 3 7 10 12` — result for “mean fluorescence intensity”: 195 a.u.
Under “mean fluorescence intensity”, `2'F-ANA at 2 3 4 5 6 7 12 13 14` is recorded as 47.7 a.u.
`2'F-ANA at 1 2 5 6 7 12 13 14 15`: “mean fluorescence intensity” 48.3 a.u.
For `2'F-ANA at 1 2 4 6 7 8 9 10 11 12 13 15`, “mean fluorescence intensity” read 52.8 a.u.
For `2'F-ANA at 1 2 5 6 7 8 9 12 13 15`, “mean fluorescence intensity” read 76.6 a.u.
For `2'F-ANA at 1 4 6 8 9 10 12 13 14 15`, “mean fluorescence intensity” read 52.3 a.u.
`2'F-ANA at 1 2 5 7 10 13 14`: “mean fluorescence intensity” 46.1 a.u.
`2'F-ANA at 1 5 9 11 13 14` — result for “mean fluorescence intensity”: 65.7 a.u.
`2'F-ANA at 1 4 7 8 9 11 12 13` — result for “mean fluorescence intensity”: 169 a.u.
`2'F-ANA at 1 4 5 6 7 11 12 13 14` — result for “mean fluorescence intensity”: 43.9 a.u.
`2'F-ANA at 3 4 5 7 10 11 12 13 15`: “mean fluorescence intensity” 55.6 a.u.
`2'F-ANA at 1 2 5 9 13 14 15`: “mean fluorescence intensity” 48.7 a.u.
Under “mean fluorescence intensity”, `2'F-ANA at 1 3 5 7 8 10 11 13 14 15` is recorded as 50.3 a.u.
For `2'F-ANA at 1 2 7 8`, “mean fluorescence intensity” read 234 a.u.
`2'F-ANA at 1 5 9 12`: “mean fluorescence intensity” 124 a.u.
Under “mean fluorescence intensity”, `2'F-ANA at 2 4 5 7 8 10 11 13` is recorded as 46 a.u.
`2'F-ANA at 1 5 6 10 12 15`: “mean fluorescence intensity” 56 a.u.
For `2'F-ANA at 4 8 10 11 12`, “mean fluorescence intensity” read 105 a.u.

Sample 4 — method: RNA Bind-n-Seq; form: RNA; medium: in vitro; tested at: not given; relative to: input RNA pool; reading: higher = stronger binding
Target: RING finger protein unkempt homolog, zinc fingers 1-6, GST-SBP tag (UNK, Homo sapiens, UniProt Q9C0B0, residues 30-357)
Chain of UniProt Q9C0B0 (30-357, looked up): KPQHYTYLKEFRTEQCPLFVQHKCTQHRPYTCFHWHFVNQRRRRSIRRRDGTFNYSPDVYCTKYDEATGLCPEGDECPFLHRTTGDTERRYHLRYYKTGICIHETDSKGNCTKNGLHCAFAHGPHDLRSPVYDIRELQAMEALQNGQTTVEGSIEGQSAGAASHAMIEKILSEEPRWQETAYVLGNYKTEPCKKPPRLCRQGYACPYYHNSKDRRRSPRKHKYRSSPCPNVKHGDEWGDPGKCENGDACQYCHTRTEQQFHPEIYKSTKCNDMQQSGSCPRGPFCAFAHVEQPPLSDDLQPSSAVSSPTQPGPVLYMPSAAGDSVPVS
Notes: RNA with constant flanks, human and mouse sites, ends assumed
All sequences stand within: GGGAGUUCUACAGUCCGACGAUC … CAACAGAGGAUUGAGCAUCA
With `AGUAAACCUGGCAGCUAUAGAAUACACUAUGUGCAUUUAUAAUAGCUAUUUUAUAUAUUGUAGUGUUCAACAUUUUUAAAUUAAAUGUUUUACAUUCACAAGUGGUGGGGAGUCUUGUCA` the bound/input enrichment was 0.908 ratio.
`UUGAAGAAAUCAGCAUUUCUAACUGAAGUGAGCCAAAAGGAAAAUUAUGCUGGGGCAAAGUUUAGUGAUCCACCUUCUCCUAGUGUUCUUCCAAAGCCUCCUAGUCACUGGAUGGGAAGC` gave a bound/input enrichment of 0.29 ratio.
With `UUGCCACCGUCCGCCAAAAAGUCAGGCCAGAAACCUGUGCUUUCAGAUGUUCACGCAGAGCUAGACAGAAUCACACGGAAACCUGCUUCUGUUUCUCCUACAACACCUACAUCUCCUACG` the bound/input enrichment was 0.152 ratio.
With `UUAAUGUUUUCAAACUGCUUUGAAUACAACCCUCGGAACACAAGUGAAGCAAAAGCUGGAACUCGGCUUCAAGCAUUUUUUCAUAUUCAAGCUCAAAAGCUUGGACUCCACGUCUCACCC` the bound/input enrichment was 0.119 ratio.
`AGUCUCACGAAUGUAGGAAACUCAUUUAGUGGUCCAGCUAAUCCUUUAGUGUCUAGAUCUAAUAAGUUUCAGAACUCGUCAGUGGAAGAUGAUGAUGAUGUUGUUUUUAUCGAACCUGUA` has a bound/input enrichment of 1.13 ratio.
`UGCACAGAAGUUAUCCAGUCGGCUCAAGGCAUGGAGUAUCUUCUAGGUGUGGUGGAAGUGUACCGCGUAACCAAGCGUGUGGAGCUGGGGAUAAAAGCCACUGCUGUGUGUAGUGAGAAA` gave a bound/input enrichment of 0.291 ratio.
`ACUUUAAACCAUUUGACUUUCGCUCCAAAGUUAUGUUGGUAGUAUAGCAAAUUAUGAUGAAUAGCUUUAAUUGUAUGUUUAAAAGUCUCAUAUGUUCACAUGCUUAAAUCUGGGUAUCAG` has a bound/input enrichment of 6.75 ratio.
With `CCACAUGAUGUAGAAAUAAAUAAAAUCAUACCUACGAGUGCAUCCAAGACAGAAGCACCGGCAGCCGCAAAGUCCCUGACAUCGCCCCUCGAUGACACAGAAGUAAAGAAGGUGAUGGAA` the bound/input enrichment was 0.882 ratio.
The bound/input enrichment of `AUGGAACAUUUUGAUGCAUCACUUAGUACCUAUUUCAAGGCAUUGCUAGGCCCUCGAGAUACUAGAGUAAAAGGAUGGUUUCUUCUGGACAAUUAUAUACCCACAUUUAUCUGCUCUGUC` is reported as 1.99 ratio.
`GUCAGCUGGGGUACAAAGGCCCAGCCUAUAGACUCCAUAUUAGCAGACUGGAAUGAAGACAUAGAAGCAUUUGAAAUGAUGGAGAAGGAUGAACUAUGACUCUCUGGAAAGACUCUGGUG` gave a bound/input enrichment of 1.45 ratio.
For `CCACACAGAACCAGGGCUGCCCCUGUAAUCCCCACAGUAAGAAAGUUGUAUGGCAUAUUCCAACAAGUAUUGGUUCGUCUGGUGUCUUUAGAGCUUUACUCUGUUGAAGUGACUGAUUCU`, the bound/input enrichment was 0.332 ratio.

Sample 5 — target: CCNB1, cyclin fold, Cln2 fusion (human); method: yeast growth competition, sequencing; medium: yeast; notes: weak parent motif; relative to: not given; reading: higher = stronger binding
Starting sequence: SLBP docking peptide (human); ARYKRKLLINDFG
`ARYKFKLLINDFG [R5F]` — result for “normalised enrichment score”: 0.392.
Under “normalised enrichment score”, `ARYKYKLLINDFG [R5Y]` is recorded as -0.138.
Under “normalised enrichment score”, `ARYKRKLLINDWG [F12W]` is recorded as 0.171.
For `AVYKRKLLINDFG [R2V]`, “normalised enrichment score” read 0.842.
`ARYKRKLLIYDFG [N10Y]` — result for “normalised enrichment score”: 0.356.
`ARYKLKLLINDFG [R5L]`: “normalised enrichment score” 0.883.
`ARGKRKLLINDFG [Y3G]` — result for “normalised enrichment score”: 0.572.
For `ARYKRKLCINDFG [L8C]`, “normalised enrichment score” read 0.368.
`ARRKRKLLINDFG [Y3R]` — result for “normalised enrichment score”: 0.603.
Under “normalised enrichment score”, `AMYKRKLLINDFG [R2M]` is recorded as 0.654.
`ARYKRKLLICDFG [N10C]` — result for “normalised enrichment score”: 0.994.
`ARMKRKLLINDFG [Y3M]` — result for “normalised enrichment score”: 0.873.

Single results of other studies
`PhoQ, residues 284 288 289 292 302 303 NLGVHL` gave a fold induction of 3.12 (PhoP, residues 12 14 15 18 19 LHSVQ (Escherichia coli, UniProt P23836); Sort-seq, measured: YFP reporter; E. coli; PhoQ-PhoP variant library, with: 10 µM Mg2+; relative to: high Mg2+ state, higher = stronger signaling).
